Measured values pooled from the literature.
Every numbered part comes from another study and shows a few of its results, in no order.

Set 1
Target: PABPC1L2, full length, GST fusion (mouse, UniProt A0ABA7IW68)
Technique: RNAcompete
Molecule type: RNA
Matrix: in vitro
Tested at: 20 nM
Notes: 7-mer, probes averaged, single round
Baseline: mean of 7-mers
Direction: higher = stronger binding
Target sequence (chain): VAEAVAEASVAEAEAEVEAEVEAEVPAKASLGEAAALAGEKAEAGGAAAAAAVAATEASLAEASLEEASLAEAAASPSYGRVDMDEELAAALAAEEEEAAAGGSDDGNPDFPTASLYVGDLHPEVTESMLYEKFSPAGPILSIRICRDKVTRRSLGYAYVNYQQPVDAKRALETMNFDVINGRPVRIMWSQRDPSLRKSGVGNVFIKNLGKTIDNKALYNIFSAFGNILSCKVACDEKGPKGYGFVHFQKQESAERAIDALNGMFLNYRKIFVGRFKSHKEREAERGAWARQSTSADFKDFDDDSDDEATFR
Sequence	7-mer Z-score
CGCAAGU	-0.365
GGUUGCU	-0.0699
GGCAGGC	0.303
AUCCCCU	-0.429

Set 2
Target: Histone acetyltransferase KAT6A, both winged helices, GST fusion (KAT6A, Homo sapiens, UniProt Q92794, residues 1-181)
Technique: protein binding microarray
Molecule type: double-stranded DNA, one strand shown
Matrix: in vitro
Tested at: not given
Notes: 8-mer, flanks averaged, mean of 2 arrays, mostly near background
Baseline: not given
Direction: higher = stronger binding
Construct (chain): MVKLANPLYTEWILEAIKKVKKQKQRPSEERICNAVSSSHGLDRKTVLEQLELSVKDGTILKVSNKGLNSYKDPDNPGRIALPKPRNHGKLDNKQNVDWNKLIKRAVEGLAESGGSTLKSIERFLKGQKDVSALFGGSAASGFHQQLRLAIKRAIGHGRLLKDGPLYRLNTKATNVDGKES
Sequence	E-score
ATCATGTG	-0.114
TCCTATAA	-0.0651
CCCACGAG	-0.232
CTCGGTCC	-0.0554
AAATGCCT	-0.214
CTCCTCGA	-0.221

Set 3
Target: Interferon regulatory factor 7, full length, phosphomimetic (IRF7, Homo sapiens, UniProt Q92985, residues 1-503, S471D/S472D/S475D/S476D/S477D/S483D/S484D/S487D)
UniProt Q92985, sequence (whole entry, unmodified, looked up): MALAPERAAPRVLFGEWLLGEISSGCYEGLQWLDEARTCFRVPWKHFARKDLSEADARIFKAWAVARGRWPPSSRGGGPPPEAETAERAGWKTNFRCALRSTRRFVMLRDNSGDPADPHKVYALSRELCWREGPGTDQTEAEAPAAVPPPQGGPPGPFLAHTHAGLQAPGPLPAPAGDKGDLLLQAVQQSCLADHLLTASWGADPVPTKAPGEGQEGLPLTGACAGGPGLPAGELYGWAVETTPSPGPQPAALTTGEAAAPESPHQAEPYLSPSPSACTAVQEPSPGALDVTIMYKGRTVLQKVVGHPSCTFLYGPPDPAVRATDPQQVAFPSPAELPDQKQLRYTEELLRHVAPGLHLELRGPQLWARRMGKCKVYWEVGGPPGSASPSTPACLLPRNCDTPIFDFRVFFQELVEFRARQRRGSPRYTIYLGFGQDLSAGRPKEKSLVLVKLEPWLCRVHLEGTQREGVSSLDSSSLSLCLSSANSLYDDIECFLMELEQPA
Technique: protein-binding microarray
Molecule type: double-stranded DNA, one strand shown
Matrix: in vitro
Tested at: 2200 nM top
Notes: 60-bp whole probe
Together with: salmon DNA 0.4 mg/ml
Baseline: random background probes
Direction: higher = stronger binding
Shared flanks, not repeated: GCCTAGCAC … GTCTTGATTCGCTTGACGCTGCTG
Sequence	fitted relative affinity [z-score]
TCACCTGTCCATTCCTTACTGTGCTAG	2.73
ATATATATCATTTAATTATAGTGCTAG	0.382
TTAGGTATCGGGTTTAGGTTAGTGCTA	0.718
TCATGCATGTTTTTGACACTGTGCTAG	1.14
GACGGTCCCGGTTTCGGGACGTGCTAG	2.98

Mixed results
Substance	target	test	test system	setting	scale	endpoint	value
PhoQ, residues 284 288 289 292 302 303 SSTLSG	PhoP, residues 12 14 15 18 19 IQSYL (Escherichia coli, UniProt P23836)	Sort-seq, measured: YFP reporter	E. coli	PhoQ-PhoP variant library, together with: 10 µM Mg2+	baseline: high Mg2+ state, higher = stronger signaling	fold induction	12.3
